Experimental data gathered from unrelated publications.
A part holds a random share of what one study measured.

Sample 1
Target: RNA binding protein fox-1 homolog 2, RRM domain, GST-SBP tag (RBFOX2, Homo sapiens, UniProt O43251-10, residues 100-194)
Method: RNA Bind-n-Seq
Form: RNA
Matrix: in vitro
Tested at: 365 nM
Setting: natural RNA segment, single round, ends assumed
Baseline: no-protein control
Direction: higher = stronger binding
Endpoint: RBNS enrichment (R)
Constant ends, left off below: GGGAGUUCUACAGUCCGACGAUC … UGGAAUUCUCGGGUGCCAA
Residues (chain): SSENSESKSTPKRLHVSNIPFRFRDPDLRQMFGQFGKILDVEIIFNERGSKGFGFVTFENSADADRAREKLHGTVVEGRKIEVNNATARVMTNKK
ACAUAGUGAGAUCCUAUCUCUAUAAAAAAUCAAAAAUUAGCCAGGCAUGGUGGUGCAUACCUAUAGUCCUGGCUAUUUGGGAGGCUGAGGCAGGAGGAUUGCUUUAGCCC: 0.335
UCCCCGCCCCUGACUGAUGGCAGGAAUCCAAGUGCAUUUCUUAAAUAAGUUACUAUUUAUUCCGCUCCGCCCCCUCCCUCUCCCUUGAGAAGCUGAGUCUUCUGCAUCAG: 0.637
AGGACCCAGAGCAGGCCUGUCCAUGCCAUUCCUUCGCACAGAUGAAACUGAGCUGGGACUGGAAAGGACAGCCCUUGACCUGGGUUCUGGGUAUAAUUUGCACUUUUGAG: 0.895
UUACUCCUAGUCCUACCAGUAAGGCGUCCACUUGCAAUGGUAACUGAGUCCACAAACAGCUGUUAGAACCUAGACAGCAGCAUGACUGGCUCAGAGCUCUUGCCCAUGAG: 0.811
GAAAAUGCCAACUUGGUUUUUUAACUCCUCUCACCCUGUUAGCUCUGAUUAAAAACACUGCAACCCAGCUAACUUGUCCAGCAUAUGUUGAAUGGGAGCCAAAGUGUAGC: 1.16
ACGGUGAAACGGCCCUAGGAGGGUCGCUCUAGUUGAACUCUCCAGGCAGGACCUUAUGCUCAGAAAUCUUUGUAUAGUUUUAAAUUUUUGAGGAGUAUCUCUGCUCGGAA: 0.722
CAUUUCUAUCAUGCAUUCCGAUGUCAUGGCAGAAAAUUUUGAAGAUAAAAAAAUAAGAUAAUCAAAAUGUUUCCUUUGCCUUUGUUUGGUCUUGGUUGUCGGAGACAGUC: 0.731
AGGGGAUGUUUGCCUUUAAGGUUUUAUACUUUGUUUGGUUUGGAAAGAUGCUUUAAAUUAAAUUUGGGUAAUAUUAAACCACAUGUUUACAAUACCAAAAUCCACAAAAG: 0.506
UGAUGGGCGUCCAAGCAGACCACACGGAUCACUGAGGCACUGAUGUAGGCCCCUCUGCAACGACUUCCUUUGCACCAAAGACAACAGUCUACAAGUUUCUACUUUCUUGU: 0.494
UUGUAAACUAUACUGCAUGCUGACAGAGAAGCGCUCUUUUAGCUAAGCCCAGAACUUCUCUUUUGACAAUAAAGUACUGAGCAGUGGUAUCAUGAGGGCCACCUCCACAU: 0.945
CUAUUUACUGGGCGGUAAAAGGGGUUUACCUCUCACCUUUGGUCAUUCCUAAGUUCCUAUCUCCUUCACACUGUACCUAGGGUGAUGGUUUCGGUCAGGCCAUCUCCAGC: 0.387
UCCCUUUUUCUACAUAUGUGUAGAUUCAUUCUAUAAGGUCUGUUCUCUAAAGAACCUUAACUAAUGCAUCAUAAGAAUUCUCCUUUCUUUGUCUUAUGGUAUUUUUUAGG: 0.573

Sample 2
Target: Centromere-binding protein 1, full length, His-tagged (CBF1, Saccharomyces cerevisiae, UniProt P17106, residues 1-351)
UniProt P17106, sequence (whole entry, looked up): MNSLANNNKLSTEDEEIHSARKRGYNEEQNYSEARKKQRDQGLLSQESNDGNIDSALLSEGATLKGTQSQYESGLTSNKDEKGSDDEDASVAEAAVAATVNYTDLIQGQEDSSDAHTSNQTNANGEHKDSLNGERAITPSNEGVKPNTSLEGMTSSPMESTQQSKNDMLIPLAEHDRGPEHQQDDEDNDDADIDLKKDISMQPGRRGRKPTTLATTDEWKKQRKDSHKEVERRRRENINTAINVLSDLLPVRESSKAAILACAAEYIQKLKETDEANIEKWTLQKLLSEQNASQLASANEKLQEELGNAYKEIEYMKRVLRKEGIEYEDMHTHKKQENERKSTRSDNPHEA
Method: competition protein-binding microarray
Form: double-stranded DNA, one strand shown
Matrix: in vitro
Tested at: 2 µM
Setting: whole 60-bp probe, lowest competitor level
Added: Pho4 competitor, 0.05 µM
Direction: higher = stronger binding
Endpoint: fluorescence intensity
Constant ends, left off below: … GTCTTGATTCGCTTGACGCTGCTG
CAACAATATACCCAACACGTGGATTTGCCAGCCTGT: 810 a.u.
TGCTCTCGAAGCCGTCACGTGCGGATCTAGGCCTGC: 3590 a.u.
AAATTACTAAGTTGACCTGTGGGTGACGCCGTATGA: 68.9 a.u.
AAGAAGGCATTCCTCCACGTGACGGAAGACTTTGGA: 2240 a.u.
TCGCGAAGGCTAAGCCATGTGCTGTTACCCCTGCTG: 72.4 a.u.
AAAGCGGTAATTTGCGGTGTGGGTGCAGATATCTAT: 75.6 a.u.
TTCTTTTCCCTTTAACATGTGGAGCATAGCAGGCTC: 89.5 a.u.
GCAGAGGAGATCAGTCTCGTGAAGTGGATGGTTTCC: 105 a.u.
AGACGTTGAGAAGTCCTCGTGAATAATCTGAATGAC: 131 a.u.
AAGAGCGTAAGCTTGCTCGTGGTGAGAAGGGAACTA: 68.9 a.u.
TCTTAATTAAAGTTTCACGGGCAATTCTAACCTTTT: 82.7 a.u.
ATATATACTTTAGCATACGTGTGAATACGCCATATC: 133 a.u.
GTCTTGTCTCATTGGTGTGTGGGTGTCCCCACTTCA: 71.2 a.u.
AGGAAGAAAGAGCTGCTCGTGTTGGTGCCAAGATCG: 62.1 a.u.
TACCACCACCAAGAGAATGTGTGAGCTGGAAACCTT: 63.6 a.u.

Sample 3
Target: Fragile X messenger ribonucleoprotein 1, C-terminal low-complexity region (Fmr1, Mus musculus, UniProt P35922)
Method: RNA Bind-n-Seq
Form: RNA
Matrix: in vitro
Tested at: 200 nM
Setting: whole 134-nt RNA, ends assumed
Added: 150 mM LiCl
Baseline: input library
Direction: higher = stronger binding
Endpoint: log2 enrichment
Each molecule: 7-deaza-guanosine replaces G
Constant ends, left off below: GGGAGUUCUACAGUCCGACGAUC … UGGAAUUCUCGGGUGUCAAGG
UCCUGUGCUACACAUCGUAUGUACCGAAUCGGAAAAAGGGGAAAAAGGGGAAAAAGGGGAAAGUAUUAUGUUACGCCGUUCGGAUCUGCA: -0.438
UCCUGUGCUACACAUCGUAUGUACCGAAUCGGGGAGGGGAAAAAGGGGUUUUUUUGGGGAAAGUAUUAUGUUACGCCGUUCGGAUCUGCA: -0.00188
UAACUUUAGAGGAGGAUAUGAUGGAUAUGGCAGUGGACGUGGAUUUGGGGAUGGCUAUAAUGGGUAUGGAGGAGGACCUGGAGGUGGCAA: 0.83
CACAGACAACACGCACCCACACAGACGCAGAGGGAAGGGGUUGGGAUGGGGACAGGGUGCACAGCAGGGCGGGGUAGGACCCCAGCCCCU: 0.536
ACCAUGCAGGUGGGCAUCAAAGGGAAGUGGGGCAAGGGGGGGAUAGGGAGGGGGGUAACACUUUGGGAACAGGUGGUCCCAGGUCGUUUC: 1.22
GUCCUGUGCUACACAUCGUAUGUACCGAAUCAAAUUUUUAAACCCAAAUUUUUUUAAAAAAGUAUUAUGUUACGCCGUUCGGAUCUGCAC: -2.1
AAGUCCUGUGCUACACAUCGUAUGUACCGAAUCGGAAAGGUUUUUGGUUUUUUUGGAAAGUAUUAUGUUACGCCGUUCGGAUCUGCACUU: -2.52
CCUCAAGUCCUGUGCUACACAUCGUAUGUACCGAAUCGGGGCGGGGCGGCGGAAAGUAUUAUGUUACGCCGUUCGGAUCUGCACUUCCAG: -1.63

Mixed results
PhoQ, residues 284 288 289 292 302 303 STVVAA
fold induction (PhoP, residues 12 14 15 18 19 VQALL (Escherichia coli, UniProt P23836); Sort-seq, refers to: YFP reporter; E. coli; PhoQ-PhoP variant library, added: 10 µM Mg2+; baseline: high Mg2+ state, higher = stronger signaling): 22.6
